Results pooled from the literature.
Every numbered part comes from another study and shows a few of its results, in no order. Changes are numbered by the printed parent chain.

Set 1
Target: CREB5, bZIP domain (human)
Technique: DHFR protein complementation
Medium: yeast
Notes: single substitutions, most at no-binding floor
Relative to: wild-type JUN-FOS pair
Reading: higher = stronger binding
Parent: JUN, bZIP domain (human); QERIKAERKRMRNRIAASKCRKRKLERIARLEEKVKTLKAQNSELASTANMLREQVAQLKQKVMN; partner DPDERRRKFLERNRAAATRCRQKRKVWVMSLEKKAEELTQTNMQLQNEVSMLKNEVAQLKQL
| Change | binding fitness [natural log] |
| --- | --- |
| A46E | -0.184 |
| R53K | -0.339 |
| E54G | -0.405 |
| E32H | -0.685 |
| L38S | -1.4 |
| L31M | -0.5 |
| M51L | -0.233 |
| R30D | -0.163 |
| T48V | -0.341 |
| A57L | -0.564 |
| A40I | -0.399 |
| A40G | -0.634 |
| V56P | -1.42 |
| L52N | -0.854 |
| T37G | -0.346 |
| A40S | -0.329 |
| T37K | -0.239 |
| E32C | -0.271 |

Set 2
Target: RNA binding protein fox-1 homolog 2, RRM domain, GST-SBP tag (RBFOX2, Homo sapiens, UniProt O43251-10, residues 100-194)
Technique: RNA Bind-n-Seq
Molecule type: RNA
Medium: in vitro
Tested at: 365 nM
Notes: natural RNA segment, single round, ends assumed
Relative to: no-protein control
Reading: higher = stronger binding
All sequences stand within: GGGAGUUCUACAGUCCGACGAUC … UGGAAUUCUCGGGUGCCAA
Residues (chain): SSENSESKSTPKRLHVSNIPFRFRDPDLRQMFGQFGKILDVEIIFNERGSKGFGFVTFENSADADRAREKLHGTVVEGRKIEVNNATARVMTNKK
| Oligonucleotide | RBNS enrichment (R) |
| --- | --- |
| CCUUUUCUGGUUGUGGACAAGGCUGCCUUAGGACUUUGCUAACCCAAUAAAACCUUUAGAUUCUGGUGAAGCCAGAGCCUCUCCACAGUGGCUAAGGUUGUUGUUGAUCU | 0.295 |
| CACAUCUCAUCUCACCCAUCGGCUACCUGCUGUAAUAUAAGACAACAGCUUUUAAACGUGUAUAUAAUCCAUGAUUUUGGUUUGGUUCUGUUUGUUUUCCUUGGUGGUCC | 0.627 |
| CCUUGGCCAGGACUUCACAAGGCUCACACCUACAAUCCCAUGAAGGCCAGGGUGGUCUGCUUAGCCAGGAAAGGGCAAGUGCCUUCCCCUCGGCCACACUGCCCCUUGUG | 0.225 |
| UGUCAGUCAUGUAACUGGCAAGGAUCACAGCCCGGUUGGGUGGCAUUCUGUGCCUCUGGCUUGGCUGAACAGUUCUGGAAUUACCACCAGAAUCCUUGACUCCCUGCCCC | 0.193 |
| AAAUCUAGAAGCCUUCUCAUGUUGCCUGGUCACCUACUCCAUAAAGUGUGGGCCUUGCCUGGAAAGGAUGUUAUCACUGUCCUGCUCACAGGAACAGCCCUCUUAAUCUG | 0.374 |
| UGGAAACCAGAAUGAUUUUGACAUACAGGAGAGCUGCAGUUGUGAAAGCACCAUCAUCAUAGAGGAUGAUGUAAUUAAAAAAUGGUCAGUGUGCAAAGAAAAGAACUGCU | 0.679 |
| GUUUUGUUCUCUUUGUUGGUUGUUUUUCCUUAAUCUUUCUCCUUUCUAUCUGAUUUAAGCAAAAGAGAAAAAAAUAUCUGAAAGCUGUCUUAAAGAGAGAGAGAGAGAGA | 0.387 |
| UUUCACAUCUCCAUAGCUAGACCCGCCAUGGGCAUUAUGACCGUGUCUCCUAAAGGGUCGGUUUUGUUACGCAACACGAAGAAUGCUGUCUCAGCCUUGUUUUUCUAGAG | 0.568 |

Set 3
Target: CCNB3, cyclin fold, Cln2 fusion (human)
Technique: yeast growth competition, sequencing
Medium: yeast
Notes: weak parent motif
Relative to: not given
Reading: higher = stronger binding
Parent: CDKN1B docking peptide (human); PSACRNLFGPVDH
| Change | normalised enrichment score |
| --- | --- |
| G9I | -0.000411 |
| G9A | 0.305 |
| H13A | 0.337 |
| P1S | 0.288 |
| P10T | 0.191 |
| V11W | 0.919 |
| R5C | 0.0249 |
| H13L | 0.35 |
| G9F | 0.45 |
| V11Y | 0.269 |
| H13W | 0.547 |
| S2K | 0.383 |
| F8W | 0.167 |
| P1A | 0.692 |
| V11D | 0.271 |
| P10F | 0.31 |
| L7F | 0.446 |

Single results of other studies
| Substance | target | assay | system | conditions | scale | measurement | value |
| --- | --- | --- | --- | --- | --- | --- | --- |
| PhoQ, residues 284 288 289 292 302 303 NLGVHL | PhoP, residues 12 14 15 18 19 NHFIF (Escherichia coli, UniProt P23836) | Sort-seq, refers to: YFP reporter | E. coli | PhoQ-PhoP variant library, with: 10 µM Mg2+ | relative to: high Mg2+ state, higher = stronger signaling | fold induction | 4.95 |

Excerpt of the above (set 1):
| Change | binding fitness [natural log] |
| --- | --- |
| E32H | -0.685 |
| L38S | -1.4 |
| L31M | -0.5 |
| M51L | -0.233 |
| R30D | -0.163 |
